Results from different studies.
Parts stem from different laboratories: compare values within a part only.
UniProt O14733, sequence (whole entry, looked up): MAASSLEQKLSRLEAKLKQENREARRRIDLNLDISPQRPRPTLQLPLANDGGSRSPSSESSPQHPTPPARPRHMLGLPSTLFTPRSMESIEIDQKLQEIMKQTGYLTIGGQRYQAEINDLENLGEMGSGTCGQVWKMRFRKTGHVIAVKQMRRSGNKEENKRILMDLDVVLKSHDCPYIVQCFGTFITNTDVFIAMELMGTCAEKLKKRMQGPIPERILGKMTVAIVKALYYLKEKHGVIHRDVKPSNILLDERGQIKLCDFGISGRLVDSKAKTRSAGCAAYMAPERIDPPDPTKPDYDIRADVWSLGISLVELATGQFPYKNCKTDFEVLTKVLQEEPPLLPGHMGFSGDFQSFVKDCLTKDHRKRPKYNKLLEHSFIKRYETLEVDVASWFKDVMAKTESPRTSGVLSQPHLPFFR
UniProt Q7L7X3, sequence (whole entry, looked up): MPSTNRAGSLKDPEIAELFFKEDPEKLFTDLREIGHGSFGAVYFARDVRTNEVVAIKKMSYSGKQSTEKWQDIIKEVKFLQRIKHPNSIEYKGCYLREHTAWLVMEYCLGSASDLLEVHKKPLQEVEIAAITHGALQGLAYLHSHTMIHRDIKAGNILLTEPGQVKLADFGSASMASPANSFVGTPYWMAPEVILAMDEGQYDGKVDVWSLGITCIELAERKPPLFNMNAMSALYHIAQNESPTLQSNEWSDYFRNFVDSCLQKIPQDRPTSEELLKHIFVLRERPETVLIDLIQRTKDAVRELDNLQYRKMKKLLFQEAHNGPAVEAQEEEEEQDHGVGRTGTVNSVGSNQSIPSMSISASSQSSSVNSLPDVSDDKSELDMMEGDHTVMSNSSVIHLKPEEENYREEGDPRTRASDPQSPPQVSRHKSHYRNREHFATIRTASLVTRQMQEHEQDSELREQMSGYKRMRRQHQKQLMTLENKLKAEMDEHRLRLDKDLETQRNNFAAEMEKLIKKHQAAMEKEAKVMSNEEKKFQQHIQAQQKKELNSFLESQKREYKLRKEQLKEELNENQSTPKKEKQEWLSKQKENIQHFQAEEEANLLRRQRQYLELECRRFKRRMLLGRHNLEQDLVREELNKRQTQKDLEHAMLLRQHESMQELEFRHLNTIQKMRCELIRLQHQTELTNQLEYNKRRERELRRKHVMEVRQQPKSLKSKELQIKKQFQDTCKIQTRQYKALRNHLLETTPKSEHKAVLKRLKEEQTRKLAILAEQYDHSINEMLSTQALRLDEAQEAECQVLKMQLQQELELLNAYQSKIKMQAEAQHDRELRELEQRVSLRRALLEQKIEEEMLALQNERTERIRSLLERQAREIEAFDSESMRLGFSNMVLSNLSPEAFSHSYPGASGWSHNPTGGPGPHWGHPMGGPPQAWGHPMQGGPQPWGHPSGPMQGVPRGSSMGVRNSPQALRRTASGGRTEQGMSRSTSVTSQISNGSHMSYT
UniProt Q9UQM7, sequence (whole entry, looked up): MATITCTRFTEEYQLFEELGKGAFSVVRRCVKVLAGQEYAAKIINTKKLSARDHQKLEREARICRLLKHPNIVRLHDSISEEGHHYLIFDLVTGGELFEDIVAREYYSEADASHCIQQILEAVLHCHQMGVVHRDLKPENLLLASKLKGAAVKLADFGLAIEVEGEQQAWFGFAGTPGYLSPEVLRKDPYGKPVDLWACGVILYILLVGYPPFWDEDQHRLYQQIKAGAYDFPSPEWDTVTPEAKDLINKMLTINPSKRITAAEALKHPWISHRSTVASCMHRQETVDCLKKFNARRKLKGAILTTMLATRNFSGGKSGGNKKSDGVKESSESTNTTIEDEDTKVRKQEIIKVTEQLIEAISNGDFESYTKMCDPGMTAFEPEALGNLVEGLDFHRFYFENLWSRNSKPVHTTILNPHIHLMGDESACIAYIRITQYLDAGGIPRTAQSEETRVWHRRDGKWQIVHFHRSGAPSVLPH
UniProt Q00532, sequence (whole entry, looked up): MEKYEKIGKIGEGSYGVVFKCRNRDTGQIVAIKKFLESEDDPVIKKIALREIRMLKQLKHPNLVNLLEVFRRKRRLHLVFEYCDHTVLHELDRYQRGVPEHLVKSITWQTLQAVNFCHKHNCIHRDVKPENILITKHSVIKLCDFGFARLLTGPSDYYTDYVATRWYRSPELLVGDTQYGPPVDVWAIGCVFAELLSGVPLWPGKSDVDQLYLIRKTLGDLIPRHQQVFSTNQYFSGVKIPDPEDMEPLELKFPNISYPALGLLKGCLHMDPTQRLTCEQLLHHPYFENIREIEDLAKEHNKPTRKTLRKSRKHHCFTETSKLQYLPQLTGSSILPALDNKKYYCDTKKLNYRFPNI
UniProt Q8NG66, sequence (whole entry, looked up): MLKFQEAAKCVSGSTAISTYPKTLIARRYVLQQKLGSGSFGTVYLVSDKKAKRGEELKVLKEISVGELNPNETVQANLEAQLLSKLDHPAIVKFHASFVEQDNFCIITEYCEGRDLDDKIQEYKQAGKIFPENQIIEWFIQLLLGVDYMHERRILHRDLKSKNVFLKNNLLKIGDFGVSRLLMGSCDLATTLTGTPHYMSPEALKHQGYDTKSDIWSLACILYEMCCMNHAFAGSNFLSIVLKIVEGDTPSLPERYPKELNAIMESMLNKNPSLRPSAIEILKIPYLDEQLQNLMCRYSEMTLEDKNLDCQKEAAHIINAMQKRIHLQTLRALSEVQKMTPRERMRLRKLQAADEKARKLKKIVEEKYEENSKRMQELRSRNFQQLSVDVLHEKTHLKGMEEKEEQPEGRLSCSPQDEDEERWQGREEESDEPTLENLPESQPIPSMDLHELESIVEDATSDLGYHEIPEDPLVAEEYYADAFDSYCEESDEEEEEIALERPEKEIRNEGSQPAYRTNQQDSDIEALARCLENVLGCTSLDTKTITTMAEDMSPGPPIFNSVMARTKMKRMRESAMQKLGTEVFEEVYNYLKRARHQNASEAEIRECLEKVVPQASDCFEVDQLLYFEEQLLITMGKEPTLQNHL
UniProt P48729, sequence (whole entry, looked up): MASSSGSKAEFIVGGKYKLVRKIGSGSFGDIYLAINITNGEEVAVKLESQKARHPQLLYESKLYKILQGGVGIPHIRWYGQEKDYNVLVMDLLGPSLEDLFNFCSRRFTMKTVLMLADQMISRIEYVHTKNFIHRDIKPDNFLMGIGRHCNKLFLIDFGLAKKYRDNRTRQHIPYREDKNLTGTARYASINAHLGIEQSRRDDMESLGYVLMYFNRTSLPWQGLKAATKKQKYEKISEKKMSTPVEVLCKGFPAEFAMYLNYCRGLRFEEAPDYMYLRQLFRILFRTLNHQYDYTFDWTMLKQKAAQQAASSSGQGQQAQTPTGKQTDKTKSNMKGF
UniProt Q9C098, sequence (whole entry, looked up): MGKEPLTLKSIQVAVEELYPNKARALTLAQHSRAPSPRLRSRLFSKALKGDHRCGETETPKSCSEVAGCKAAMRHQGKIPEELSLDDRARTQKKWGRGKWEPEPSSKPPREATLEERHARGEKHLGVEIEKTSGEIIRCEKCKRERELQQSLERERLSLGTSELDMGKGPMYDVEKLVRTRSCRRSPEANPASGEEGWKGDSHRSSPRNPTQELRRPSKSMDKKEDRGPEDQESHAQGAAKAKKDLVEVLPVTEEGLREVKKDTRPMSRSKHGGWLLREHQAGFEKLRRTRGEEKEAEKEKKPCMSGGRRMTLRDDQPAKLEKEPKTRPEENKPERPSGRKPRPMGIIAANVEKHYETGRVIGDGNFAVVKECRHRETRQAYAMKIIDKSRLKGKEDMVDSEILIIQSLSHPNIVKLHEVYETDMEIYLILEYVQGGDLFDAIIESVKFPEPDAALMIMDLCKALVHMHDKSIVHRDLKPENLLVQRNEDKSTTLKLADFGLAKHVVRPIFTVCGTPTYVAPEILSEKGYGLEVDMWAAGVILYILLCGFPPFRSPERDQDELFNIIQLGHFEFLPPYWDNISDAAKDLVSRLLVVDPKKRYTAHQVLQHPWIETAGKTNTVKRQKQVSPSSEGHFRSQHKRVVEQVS

Series 1
Target: Beta-1 adrenergic receptor (ADRB1, Homo sapiens, UniProt P08588)
UniProt P08588, sequence (whole entry, looked up): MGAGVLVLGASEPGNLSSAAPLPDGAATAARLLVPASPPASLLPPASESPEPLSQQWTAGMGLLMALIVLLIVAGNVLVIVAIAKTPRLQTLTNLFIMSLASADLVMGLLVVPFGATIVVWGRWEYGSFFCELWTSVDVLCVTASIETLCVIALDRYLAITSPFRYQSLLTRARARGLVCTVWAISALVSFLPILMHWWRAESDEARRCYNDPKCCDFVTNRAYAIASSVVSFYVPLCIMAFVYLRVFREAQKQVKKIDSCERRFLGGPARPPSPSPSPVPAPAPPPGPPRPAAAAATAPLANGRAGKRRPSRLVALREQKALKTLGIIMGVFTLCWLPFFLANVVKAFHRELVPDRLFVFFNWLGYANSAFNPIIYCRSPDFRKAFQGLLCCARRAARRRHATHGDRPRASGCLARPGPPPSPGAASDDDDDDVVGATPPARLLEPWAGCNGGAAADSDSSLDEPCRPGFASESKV
Mode: antagonist
Endpoint: IC50
SMILES = Cc1cc2c(-c3ccccc3C)nc(-c3c(C)noc3C)cc2[nH]1; value = 31.6 µM
SMILES = CC1CCCN1C(=O)c1cc(-c2cnn(C(C)C)c2)nc2cc(F)ccc12 (stereo not shown); value = ≥ 100 µM
SMILES = O=C(Nc1cc(-c2ccccn2)nn1-c1ccccc1)c1ccc2ccccc2n1; value = ≥ 100 µM
SMILES = Cc1noc2c(-c3cnn(C)c3)cc(-c3cccnc3)nc12; value = ≥ 100 µM
SMILES = COc1ccc(F)cc1-c1ncc2c(n1)OCCN(c1cccc(C(F)(F)F)c1)C2=O; value = ≥ 100 µM
SMILES = COc1ccc(CNCC(O)COc2ccc3[nH]c(=O)ccc3c2)cc1OC (stereo not shown); value = ≥ 100 µM
SMILES = CC(C)NC(=O)c1cc(-c2cccs2)nc2ccccc12; value = ≥ 100 µM
SMILES = O=C(Cc1ccccc1)Nc1ccc([C@@H](O)[C@H]2COCC(=O)N2Cc2ccccn2)cc1; value = ≥ 100 µM

Series 2
Target: Ribosomal protein S6 kinase beta-1 (RPS6KB1, Homo sapiens, UniProt P23443)
UniProt P23443, sequence (whole entry, looked up): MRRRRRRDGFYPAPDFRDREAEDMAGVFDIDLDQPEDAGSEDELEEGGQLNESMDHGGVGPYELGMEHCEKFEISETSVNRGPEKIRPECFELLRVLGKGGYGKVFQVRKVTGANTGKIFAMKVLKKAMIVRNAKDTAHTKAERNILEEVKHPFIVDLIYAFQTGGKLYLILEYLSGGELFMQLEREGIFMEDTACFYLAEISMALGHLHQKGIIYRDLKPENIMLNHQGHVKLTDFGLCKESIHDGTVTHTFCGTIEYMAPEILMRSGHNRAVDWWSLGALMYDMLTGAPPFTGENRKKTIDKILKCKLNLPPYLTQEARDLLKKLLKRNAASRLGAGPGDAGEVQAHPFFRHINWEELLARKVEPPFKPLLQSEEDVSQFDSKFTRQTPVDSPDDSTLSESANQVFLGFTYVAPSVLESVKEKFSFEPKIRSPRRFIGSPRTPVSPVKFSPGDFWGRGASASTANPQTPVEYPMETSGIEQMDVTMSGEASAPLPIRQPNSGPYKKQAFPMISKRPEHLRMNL
Effect on: enzyme activity
Mode: inhibitor
Concentration: 0.5 µM
Relative to: control
Endpoint: remaining activity
SMILES = CCOc1cc2ncnc(Nc3cccc(Br)c3)c2cc1OCC; value = 95.8%
SMILES = COc1cc2ncnc(Nc3ccc(OCc4ccccc4)cc3)c2cc1OC; value = 95.1%
SMILES = Cc1ccc(NC(=O)c2ccc(CN3CCN(C)CC3)cc2)cc1Nc1nccc(-c2cccnc2)n1; value = 94.8%
SMILES = O=C(Nc1ccc(Cl)cc1)c1ccccc1NCc1ccncc1; value = 92.5%
SMILES = CC(C)c1nn(-c2c(Cl)cccc2Cl)c2nc(Cc3ccc(OCCO)cc3)[nH]c(=O)c12; value = 94.8%
SMILES = CS(=O)(=O)CCNCc1ccc(-c2ccc3ncnc(Nc4ccc(OCc5cccc(F)c5)c(Cl)c4)c3c2)o1; value = 95.7%
SMILES = COc1cc2ncc(-c3ccccc3)nc2cc1OC; value = 89%
SMILES = Nc1[nH]nc2nnc(-c3c(-c4ccccc4)nn4ccccc34)cc12; value = 97.7%
SMILES = COc1ccc(Cl)cc1NC(=O)Nc1cc(C)nc2ccccc12; value = 96%
SMILES = CCC(=O)Nc1ccc2ncnc(Nc3cccc(Br)c3)c2c1; value = 91.2%
SMILES = CC(C)[C@H](CO)Nc1nc(Nc2cccc(Cl)c2)c2ncn(C(C)C)c2n1; value = 90.8%
SMILES = Cc1nc(Nc2ncc(C(=O)Nc3c(C)cccc3Cl)s2)cc(N2CCN(CCO)CC2)n1; value = 102%
SMILES = Cn1cc(/C=C2\C(=O)Nc3ccc(S(N)(=O)=O)cc32)c2ccccc21; value = 44.3%
SMILES = O=c1cc(N2CCOCC2)oc2c1ccc1ccccc12; value = 99.3%
SMILES = COc1cc2ncnc(N3CCN(C(=O)Nc4ccc(Oc5ccccc5)cc4)CC3)c2cc1OC; value = 89.4%
SMILES = C[S+]([O-])c1ccc(-c2nc(-c3ccncc3)c(-c3ccc(F)cc3)[nH]2)cc1 (stereo not shown); value = 97.4%
SMILES = COc1ccc(-c2cnc3c(-c4ccsc4)cnn3c2)cc1; value = 92.1%
SMILES = CCN1/C(=C/C(C)=O)Sc2ccc(OC)cc21; value = 95%
SMILES = CC(=O)O/N=C1/C(c2c(O)[nH]c3cc(Br)ccc23)=Nc2ccccc21; value = 95.4%
SMILES = Cn1cnc2cc3c(Nc4cccc(Br)c4)ncnc3cc21; value = 100%
SMILES = O=C1NC(=O)/C(=C/c2ccc3nccnc3c2)S1; value = 91.2%
SMILES = CN(C)CCCn1cc(C2=C(c3c[nH]c4ccccc34)C(=O)NC2=O)c2ccccc21; value = 11.6%

Series 3
Structure (SMILES): COc1cc(C(=O)N2CCC(N3CCN(C)CC3)CC2)ccc1Nc1ncc2c(n1)N(C)c1ccccc1C(=O)N2C
Technique: KINOMEscan
Concentration: 10 µM
Relative to: DMSO control
Direction: lower = stronger binding
Endpoint: binding
target = ARK5; value = 47%
target = PKN2; value = 95%
target = EPHA3; value = 100%
target = TESK1; value = 82%
target = FGR; value = 84%
target = IRAK1; value = 100%
target = CIT; value = 99%

Series 4
Compound: C[C@@]1(Cc2ccc(C#N)cc2)C(=O)N(c2cc(Cl)cc(Cl)c2)c2ncc(C(=O)NC3(c4nc(C5CCC5)no4)CC3)n21
Effect on: cell-free assay
Technique: competition with immobilised ligand
Concentration: 1 µM
Endpoint: remaining binding
target = EGFR (Homo sapiens, UniProt P00533, del752-759); value = 100%
target = NEK11 (Homo sapiens, UniProt Q8NG66); value = 100%
target = SNRK (Homo sapiens, UniProt Q9NRH2); value = 100%
target = CAMK2A (Homo sapiens, UniProt Q9UQM7); value = 89%
target = DYRK1A (Homo sapiens, UniProt Q13627); value = 99%
target = CSNK1A1 (Homo sapiens, UniProt P48729); value = 100%
target = CDKL1 (Homo sapiens, UniProt Q00532); value = 100%
target = TAOK1 (Homo sapiens, UniProt Q7L7X3); value = 97%
target = MAP2K7 (Homo sapiens, UniProt O14733); value = 100%
target = RAF1 (Homo sapiens, UniProt P04049); value = 100%
target = DCLK3 (Homo sapiens, UniProt Q9C098); value = 88%
target = YES1 (Homo sapiens, UniProt P07947); value = 100%
target = EGFR (Homo sapiens, UniProt P00533, G719S); value = 99%
target = KIT (Homo sapiens, UniProt P10721, L576P); value = 100%
target = Tyrosine-protein kinase ABL1, phosphorylated (ABL1, Homo sapiens, UniProt P00519, Q252H); value = 100%

A few entries again (series 4):
target = CAMK2A (Homo sapiens, UniProt Q9UQM7); value = 89%
target = KIT (Homo sapiens, UniProt P10721, L576P); value = 100%
target = EGFR (Homo sapiens, UniProt P00533, G719S); value = 99%
target = DYRK1A (Homo sapiens, UniProt Q13627); value = 99%
target = CDKL1 (Homo sapiens, UniProt Q00532); value = 100%
target = YES1 (Homo sapiens, UniProt P07947); value = 100%
target = Tyrosine-protein kinase ABL1, phosphorylated (ABL1, Homo sapiens, UniProt P00519, Q252H); value = 100%
target = DCLK3 (Homo sapiens, UniProt Q9C098); value = 88%
